Results collected from several papers.
Each numbered part is a random draw from the data of one study; scales do not carry over between parts.

Series 1 — method: RNA Bind-n-Seq; form: RNA; medium: in vitro; tested at: 365 nM; baseline: no-protein control; direction: higher = stronger binding
Target: RNA binding protein fox-1 homolog 2, RRM domain, GST-SBP tag (RBFOX2, Homo sapiens, UniProt O43251-10, residues 100-194)
Setting: natural RNA segment, single round, ends assumed
Shared flanks, not repeated: GGGAGUUCUACAGUCCGACGAUC … UGGAAUUCUCGGGUGCCAA
Construct (chain): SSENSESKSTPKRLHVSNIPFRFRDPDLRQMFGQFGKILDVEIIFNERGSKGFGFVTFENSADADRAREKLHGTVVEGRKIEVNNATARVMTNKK
For `UUGUUUUUUAAUGUUUCAUGACUCCCACUUUGAUUUUACAUGUUUUCUUGUAAAUAAGCCUGCCUUCCUACCUGGAAUUUGUGUGUGUGUGACUAAUACAUGUUCUACGA`, “RBNS enrichment (R)” read 1.06.
`CGGUUCAGGGCAGUGCUCAGCAGCUGUGUGCUCCCCUGGUUGGGUCAUUAACCCUGCAGCUGCCUGGUCUUGUCUGCUGGAGGGAGGAGAACACAGCCAUCUUGGCCCAC` — result for “RBNS enrichment (R)”: 0.493.
Under “RBNS enrichment (R)”, `UAAAAGGUUGUUUGGAUUUUCUACGUACGGUAUAUAGCGUAUUUGGAUUUUCUUUUAAACUAAACCUUUCUACUCGCCCGGAAAAAUUCCUUGGAGAUAUCGAAGUAUGG` is recorded as 0.351.
For `GUGCGUUCAUGGUUUCUUCACUAACAGAGGAAUUAUGCUUUGCACUACGUCCCUCCAAGUGAAGACAGACUGUUUUAGACAGACUUUUUAAAAUGGUGCCCUACCAUUGA`, “RBNS enrichment (R)” read 0.225.
Under “RBNS enrichment (R)”, `UGUUAAUGAUCCUGUCUUAGGGCAGAGGCCACCAGGGAGUGGGGAUCCUGAGGGAAGGGGCAGGGAUUUCUCCUUCUUCUUGGUCCUGGCUCCCAAGGGCUUCUGUCUUC` is recorded as 0.332.
For `AGCAAACGUCCACUGUCCUUUCUCUAUCCCCCUCACUCAGCCUACACGUUACUCCAGCGCUACUCUUGCCAUUACGCCCCGUGUUUCCGAGCACAGCUGGUCCUACCCCA`, “RBNS enrichment (R)” read 1.18.
Under “RBNS enrichment (R)”, `AUCAGCCUAGGAGAGCAGAUGCAGCUCCAGGGGCUCGACUUAUAGCCAGUUACAGCUCCCCGGCUCUUCUGUGUGGCAGAGCGUCGUUUCCGGGCCCUCAGGGCUGGGGA` is recorded as 0.285.
Under “RBNS enrichment (R)”, `AGGGAAGAGAAGAGGGAGGGACUCACUCUUUAGAACCAGGAAGAUAAUUGACUUAGUGAAAGACAGCUUCCCCUCUGUUUAGGUUCUCAGAUAUGUCCAGAGCAAAUUAG` is recorded as 0.73.
`GGGGAGGAACUGCACCAGCGCACAAUCCUAAGAGCCUCGGCUCCUUGCCCAUUCACUUCAGUCUGCAGAAAGCCUCUUCCCUGGGUUGUCAGCCAGAAAAAAGGAGAGGU` — result for “RBNS enrichment (R)”: 0.479.
`AAGAUUUAUUUUUUAAUAUGUUGACUUUGUUUCUCAGCAAAGCAUUGGUCAUGUGUGUAUUUUUCCAUAGUCCCACCUUGGAGCAUUUAUGUAGACAUUGUAAAUAAAUU` — result for “RBNS enrichment (R)”: 0.754.
For `GUAUUUAUAGUAACGUAAGCUAUUAAUGCUAACUCUUGCAUGUCAAGAAACAUUAGUCUUAGGAAUUCUUCAAAAAAUGGCAUCCCAAUGAAAAUAAAUUUGAUGACUAU`, “RBNS enrichment (R)” read 0.382.
For `AUUUCAGGGAUCCUUAAUAUUUUGAUUUGUUUUCCGAGAUUGGAUUUUAUUUUAUCUGCUAUUUCAGUUCAUCUAAAUCUUGUGUUCUGUACAUGUGAUGUUUGACUGUA`, “RBNS enrichment (R)” read 0.53.

Series 2 — method: protein binding microarray; form: double-stranded DNA, one strand shown; medium: in vitro; tested at: not given; baseline: not given; direction: higher = stronger binding
Target: Histone acetyltransferase KAT6A, winged helix 2, GST fusion (KAT6A, Homo sapiens, UniProt Q92794, residues 85-181)
Setting: 8-mer, flanks averaged, mean of 2 arrays, mostly near background
Residues (chain): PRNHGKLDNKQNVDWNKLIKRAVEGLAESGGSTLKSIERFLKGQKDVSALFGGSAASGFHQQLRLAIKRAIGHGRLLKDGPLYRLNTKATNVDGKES
`GGAAAAGA` has an E-score of -0.0517.
The E-score of `CCTGCAGG` is reported as 0.201.
`ATTAGCCG` gave an E-score of -0.00137.
`CCTGTCGA` has an E-score of 0.00056.
The E-score of `CTAACAGA` is reported as 0.0167.
`CCTCGTCC` gave an E-score of -0.0189.
The E-score of `TAGGTAAA` is reported as -0.216.
`AAGTCCCG` has an E-score of -0.0815.
The E-score of `AACGATGA` is reported as -0.08.
For `ATATGGAA`, the E-score was -0.0429.
The E-score of `AATCGTAG` is reported as -0.0673.
For `CTGGCATA`, the E-score was 0.0631.
`TCAGGTCA` has an E-score of 0.0696.
For `AATACCAG`, the E-score was -0.0419.
`CCCGCTAC` has an E-score of 0.0933.
`CAGGGCCG` gave an E-score of 0.133.
`CCGCATAA` gave an E-score of 0.209.
For `AACTAAAC`, the E-score was -0.0915.
With `ACTCGAAA` the E-score was 0.0824.
The E-score of `AAGAGGGT` is reported as -0.0708.
The E-score of `GCATCGCC` is reported as 0.215.

Series 3 — method: protein-binding microarray; form: double-stranded DNA, one strand shown; medium: in vitro; tested at: 250 nM; setting: 60-bp whole probe; with: salmon DNA 0.4 mg/ml; baseline: random background probes; direction: higher = stronger binding; shared flanks, not repeated: GCCTAGCAC … GTCTTGATTCGCTTGACGCTGCTG
Target: Interferon regulatory factor 5, full length, phosphomimetic (IRF5, Homo sapiens, UniProt Q13568-2, residues 1-514, K96S/S451D/S453D/S456D/S462D)
`GACGATTTGAGACTGGAGACGTGCTAG` has a log fluorescence of -0.178 z-score.
`TAGCGTATATTCCCTAGAATAGTGCTA` has a log fluorescence of 0.0662 z-score.
For `GACGGTTTCCTTATGCTGACGTGCTAG`, the log fluorescence was 0.736 z-score.
For `GACGATTTCAGGTTTCGAGACGTGCTA`, the log fluorescence was 3.01 z-score.
With `TTAGATCTCAGTATCCATTAGTGCTAG` the log fluorescence was 0.583 z-score.
`TTAGGACTGGGTTACGGTTAGTGCTAG` has a log fluorescence of -0.105 z-score.
With `GACGAAATGAGACTGGAGACGTGCTAG` the log fluorescence was 0.658 z-score.
For `TTAGATTTCGACACTGGGTTAGTGCTA`, the log fluorescence was 2.4 z-score.
`TTTGGACTGGGGTTTCGGTTAGTGCTA` gave a log fluorescence of 6.69 z-score.
`CATTTTATGGTATTTTTTTCGTGCTAG` has a log fluorescence of 1.14 z-score.
`GACGGCCTCCTTCTCCTGACGTGCTAG` has a log fluorescence of -0.497 z-score.
`GGCGATATCAGTCTCGAGACGTGCTAG` gave a log fluorescence of 0.813 z-score.
`CCCGCCCCGCCCCGCCCGCAGTGCTAG` gave a log fluorescence of -0.718 z-score.
With `TTAGGTTTCAGGTATCGGTTAGTGCTA` the log fluorescence was 6.38 z-score.
`TCAAGCTTTTCATTTTTTACTGTGCTA` gave a log fluorescence of 1.46 z-score.
`TTAGGTATCGGTATCGGTTCGTGCTAG` has a log fluorescence of 8.8 z-score.
With `GAGAGAGCTTGTCTGCAGCCGTGCTAG` the log fluorescence was -0.473 z-score.
For `GACGGTATCGGACTGGGGAGGTGCTAG`, the log fluorescence was 0.825 z-score.
With `GACGATCTCCTTTTCCTGACGTGCTAG` the log fluorescence was 0.261 z-score.
With `TCATTTTTGTATTTTTGACTGTGCTAG` the log fluorescence was 1.3 z-score.
For `GGTCCAACAAACAGATCCATGTGCTAG`, the log fluorescence was -0.287 z-score.
`TCACTTTCCAATTGTCCTACTGTGCTA` has a log fluorescence of 1.55 z-score.
The log fluorescence of `TTAAGTTTCGACTATCGGTTAGTGCTA` is reported as 10.4 z-score.
For `ACCTCTCACGCATCTGAAACCGTGCTA`, the log fluorescence was 0.239 z-score.
`AACGGTCTCCTTTTCCTGACGTGCTAG` gave a log fluorescence of 0.33 z-score.

Series 4 — method: competition protein-binding microarray; form: double-stranded DNA, one strand shown; medium: in vitro; tested at: 2 µM; with: Cbf1 competitor, 0.05 µM; direction: higher = stronger binding; shared flanks, not repeated: … GTCTTGATTCGCTTGACGCTGCTG
Target: Phosphate system positive regulatory protein PHO4, full length, GST-tagged (PHO4, Saccharomyces cerevisiae, UniProt P07270, residues 1-312)
Setting: whole 60-bp probe, lowest competitor level
Construct (chain): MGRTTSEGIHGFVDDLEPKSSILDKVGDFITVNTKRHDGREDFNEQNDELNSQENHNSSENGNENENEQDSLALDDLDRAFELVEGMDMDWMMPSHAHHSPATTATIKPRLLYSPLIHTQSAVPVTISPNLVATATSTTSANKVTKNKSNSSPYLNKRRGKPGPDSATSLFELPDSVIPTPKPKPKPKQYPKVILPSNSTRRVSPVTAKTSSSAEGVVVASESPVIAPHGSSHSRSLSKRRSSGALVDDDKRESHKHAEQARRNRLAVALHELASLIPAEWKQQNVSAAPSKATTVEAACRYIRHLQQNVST
For `AACTCACCCCATTTGCTCGTGGGTAGTGACGACCGC`, the fluorescence intensity was 8300 a.u.
The fluorescence intensity of `AAATTACTAAGTTGCAAGGTGGGTGACGCCGTATGA` is reported as 4160 a.u.
With `AAATTACTAAGTTGCCAAGTGGGTGACGCCGTATGA` the fluorescence intensity was 4210 a.u.
The fluorescence intensity of `CATACCCAACCTTGTCATGTGGGTGAAGATATTTGT` is reported as 10400 a.u.
`TGCGCAACAACTTGTGAAGTGGGTGTATGTCTAGAA` has a fluorescence intensity of 4760 a.u.
For `CATACCCAACCTTGGACCGTGGGTGAAGATATTTGT`, the fluorescence intensity was 9220 a.u.
`TACTCAGAATATGAAAACGTGTCGGACGGGGATGAC` has a fluorescence intensity of 15600 a.u.
`TATCTCTGATGTTTGCACGTGCTTTAGCAACTCTTT` has a fluorescence intensity of 19600 a.u.
For `ACACTGAATCCGGGCAACGTGTCCAGAACTTGCATT`, the fluorescence intensity was 13200 a.u.
`GATCCAGATTTCGACCACGTGCTAATTATGCGTTTG` has a fluorescence intensity of 20300 a.u.
`ATTCAATGTCGTTATGACCTGCTCGGGATGTTCTGG` gave a fluorescence intensity of 3960 a.u.
With `ATTCAAGAGATCCATCTCGTGACGGTGAAAAAATTT` the fluorescence intensity was 6340 a.u.
The fluorescence intensity of `GTATGCACTTGAAACAACGTGTAGACCATCAAGTTG` is reported as 11700 a.u.
`AGGCAGAAACACTGACTCGTGGGTACGTCCACCCAG` gave a fluorescence intensity of 11200 a.u.
With `ATCAACAATTTGTTCCACGTGCGATAAAATGTCGTT` the fluorescence intensity was 18500 a.u.
The fluorescence intensity of `TCGTACCGAGTGATGAACGTGGTGATGAACACCTTG` is reported as 10500 a.u.
`GAAGAAAAACCGATGCACGTGACTCGTTAGTCAAAA` gave a fluorescence intensity of 16000 a.u.
For `TGCGTTAAAACGGCCAATGTGACAGTAGTTCACTCG`, the fluorescence intensity was 4150 a.u.
`TTATAAAGAAACCGTCACGTTCTGGATGCGACGTCG` has a fluorescence intensity of 12300 a.u.
`CTCACTCAGTACCATTACGTGTGAAAACTCCGCTGG` gave a fluorescence intensity of 5560 a.u.
With `CTTCTGTAAATTTGATTTGTGGGTGGACGCGCCCCG` the fluorescence intensity was 4250 a.u.

A few entries again (series 1):
Under “RBNS enrichment (R)”, `UAAAAGGUUGUUUGGAUUUUCUACGUACGGUAUAUAGCGUAUUUGGAUUUUCUUUUAAACUAAACCUUUCUACUCGCCCGGAAAAAUUCCUUGGAGAUAUCGAAGUAUGG` is recorded as 0.351.
For `GUGCGUUCAUGGUUUCUUCACUAACAGAGGAAUUAUGCUUUGCACUACGUCCCUCCAAGUGAAGACAGACUGUUUUAGACAGACUUUUUAAAAUGGUGCCCUACCAUUGA`, “RBNS enrichment (R)” read 0.225.
Under “RBNS enrichment (R)”, `UGUUAAUGAUCCUGUCUUAGGGCAGAGGCCACCAGGGAGUGGGGAUCCUGAGGGAAGGGGCAGGGAUUUCUCCUUCUUCUUGGUCCUGGCUCCCAAGGGCUUCUGUCUUC` is recorded as 0.332.
For `AGCAAACGUCCACUGUCCUUUCUCUAUCCCCCUCACUCAGCCUACACGUUACUCCAGCGCUACUCUUGCCAUUACGCCCCGUGUUUCCGAGCACAGCUGGUCCUACCCCA`, “RBNS enrichment (R)” read 1.18.
Under “RBNS enrichment (R)”, `AUCAGCCUAGGAGAGCAGAUGCAGCUCCAGGGGCUCGACUUAUAGCCAGUUACAGCUCCCCGGCUCUUCUGUGUGGCAGAGCGUCGUUUCCGGGCCCUCAGGGCUGGGGA` is recorded as 0.285.
Under “RBNS enrichment (R)”, `AGGGAAGAGAAGAGGGAGGGACUCACUCUUUAGAACCAGGAAGAUAAUUGACUUAGUGAAAGACAGCUUCCCCUCUGUUUAGGUUCUCAGAUAUGUCCAGAGCAAAUUAG` is recorded as 0.73.
